Measured values of several laboratories.
Every numbered part comes from another study and shows a few of its results, in no order. Positions count from the first letter of the parent shown.

Sample 1 — target: CCND1, cyclin fold, Cln2 fusion (human); method: yeast growth competition, sequencing; medium: yeast; notes: weak parent motif; baseline: not given; reading: higher = stronger binding
Starting sequence: USP37 docking peptide (human); PSAKRSLGFLPQP
Under “normalised enrichment score”, `PSAKRALGFLPQP [S6A]` is recorded as 0.365.
Under “normalised enrichment score”, `PSAKRSLGFLAQP [P11A]` is recorded as -0.197.
`PSAKASLGFLPQP [R5A]` — result for “normalised enrichment score”: -0.0636.
`PSAKRSLGFAPQP [L10A]`: “normalised enrichment score” -0.0134.
For `PSAKRSLAFLPQP [G8A]`, “normalised enrichment score” read 0.117.
`PSAKRSLGFLPQA [P13A]`: “normalised enrichment score” 0.00904.

Sample 2 — method: protein binding microarray; form: double-stranded DNA, one strand shown; medium: in vitro; concentration: not given; baseline: not given; reading: higher = stronger binding
Target: Histone acetyltransferase KAT6A, winged helix 2, GST fusion (KAT6A, Homo sapiens, UniProt Q92794, residues 85-181)
Notes: 8-mer, flanks averaged, mean of 2 arrays, mostly near background
Construct (chain): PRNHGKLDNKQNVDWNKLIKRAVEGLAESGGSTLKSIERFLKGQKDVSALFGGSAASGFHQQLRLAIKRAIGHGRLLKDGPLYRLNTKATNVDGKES
With `AACTAAAA` the E-score was 0.0604.
The E-score of `AGAGTACA` is reported as -0.00809.
For `ACCCAGCT`, the E-score was -0.118.
The E-score of `CATCACGG` is reported as -0.137.
`CGTTGTGA` gave an E-score of 0.0438.
For `ATGACATG`, the E-score was -0.173.
`AGCCGGAC` gave an E-score of 0.216.
The E-score of `ACGTCTTC` is reported as -0.255.
`TAATGCCA` has an E-score of 0.0154.
With `CGCGAGAA` the E-score was -0.0268.
The E-score of `ACCGACCC` is reported as 0.0521.
`CCGCACAA` has an E-score of 0.0246.
For `TCGTTTAA`, the E-score was -0.0592.
The E-score of `AAGATCTA` is reported as -0.0599.
The E-score of `ATCAATGC` is reported as 0.0421.
`GTGCCGCA` gave an E-score of 0.104.
With `ATATTGAG` the E-score was -0.00137.
With `GTATATTA` the E-score was -0.0138.
`AGGTAGCA` has an E-score of -0.0511.
`CCCTTCGG` gave an E-score of 0.112.
For `GCCGGATA`, the E-score was 0.164.
The E-score of `AATGAGGG` is reported as -0.169.
The E-score of `CCGACCCC` is reported as -0.109.
The E-score of `ATGAGCCA` is reported as -0.088.
With `ACGCTGCT` the E-score was -0.0923.

Sample 3 — method: RNA Bind-n-Seq; form: RNA; medium: in vitro; concentration: 200 nM; notes: whole 134-nt RNA, ends assumed; with: 150 mM LiCl; baseline: input library; reading: higher = stronger binding; library: 7-deaza-guanosine replaces G
Target: Fragile X messenger ribonucleoprotein 1, C-terminal low-complexity region (Fmr1, Mus musculus, UniProt P35922)
With `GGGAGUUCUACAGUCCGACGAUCUUCCGGAAGAAGAAGCUCCGAUUUGGCCGGAGCCGGAUCCACGAGUGGGGUCUGUUUGCCAUGGAACCCAUUGCUGCUGACGAGAUGGUCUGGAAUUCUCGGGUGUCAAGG` the log2 enrichment was -1.15.
`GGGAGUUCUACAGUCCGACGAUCAAAAUAAGCCUAAGAAAGAAUUAAUUAAAGUUCUGAUUCAGAGGGGAUAUGAUUCGGAUCCUGUGAAGGCCUGGAAAGAAGCCCAGCAAAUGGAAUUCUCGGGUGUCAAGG` has a log2 enrichment of -2.45.
With `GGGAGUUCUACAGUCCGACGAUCAGUCCUGUGCUACACAUCGUAUGUACCGAAUCGGGAAAAAGGAAAAAGGAAAAAGGGGAAAGUAUUAUGUUACGCCGUUCGGAUCUGCACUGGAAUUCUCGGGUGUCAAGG` the log2 enrichment was -0.651.
With `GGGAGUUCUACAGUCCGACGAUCUCCUGUGCUACACAUCGUAUGUACCGAAUCAAAGUGUGUGUGUAAAGUGUGUGUGUAAAAAAGUAUUAUGUUACGCCGUUCGGAUCUGCAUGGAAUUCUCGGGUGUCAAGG` the log2 enrichment was -2.06.
`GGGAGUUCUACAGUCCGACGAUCUGUUGCCGUGUGUCUCACCCUACCAUUUCAGAAAAAUGUUCGUUGGUGGCCUGAGCUGGGAUACUAGCAAAAAAGAUUUAAAAGACUAUUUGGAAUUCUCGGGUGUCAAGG` gave a log2 enrichment of -4.32.
`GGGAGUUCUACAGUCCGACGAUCCUGUGCUACACAUCGUAUGUACCGAAUCGGGGAAAAAAGGGGAAAAAAGGGGAAAAAAGGGGAAAGUAUUAUGUUACGCCGUUCGGAUCUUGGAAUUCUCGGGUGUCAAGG` gave a log2 enrichment of 1.15.
With `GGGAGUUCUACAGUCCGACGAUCGCAGGAAGUAAAAACAAAUGGAAAUGCUUCGGAUAGUGGCAGGGGUGGGGGUUGCUGAGGAAAGGGUGGGAUGGGAGUGGGUAAAGAGUUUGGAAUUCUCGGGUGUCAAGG` the log2 enrichment was 1.68.
For `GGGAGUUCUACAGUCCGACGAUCUAACUUUAGAGGAGGAUCUGAUGGAUAUGGCAGUGGACGUGGAUUUGGGGAUGGCUAUAAUGGGUAUGGAGGCGGACCUGGAGGUGGCAAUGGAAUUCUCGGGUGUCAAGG`, the log2 enrichment was 0.247.
With `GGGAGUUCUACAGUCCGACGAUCAAGUCCUGUGCUACACAUCGUAUGUACCGAAUCGGUUUUGGGUUUUGGGUUUUGGGAAAGUAUUAUGUUACGCCGUUCGGAUCUGCACUUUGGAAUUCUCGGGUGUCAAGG` the log2 enrichment was -1.49.
With `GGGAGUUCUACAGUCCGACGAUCUAACUUUAGAGGAGGAUCUGAUGGAUAUGGCAGUGGACGUGGAUUUGGGGAUGGCUAUAAUGGGUAUGGAGGAGGACCUGGAGGUAGCAAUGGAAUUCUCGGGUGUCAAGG` the log2 enrichment was -0.469.
For `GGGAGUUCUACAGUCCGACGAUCGUCCUGUGCUACACAUCGUAUGUACCGAAUCGGUUUUUGGGGUUUUUGGUUUUUGGGGAAAGUAUUAUGUUACGCCGUUCGGAUCUGCACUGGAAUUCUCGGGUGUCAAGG`, the log2 enrichment was -1.28.

Sample 4 — method: RNA Bind-n-Seq; form: RNA; medium: in vitro; concentration: 365 nM; baseline: no-protein control; reading: higher = stronger binding
Target: RNA binding protein fox-1 homolog 2, RRM domain, GST-SBP tag (RBFOX2, Homo sapiens, UniProt O43251-10, residues 100-194)
Notes: natural RNA segment, single round, ends assumed
Construct (chain): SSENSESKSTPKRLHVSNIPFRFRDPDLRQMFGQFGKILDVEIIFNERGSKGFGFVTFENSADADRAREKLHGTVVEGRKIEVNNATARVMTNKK
Under “RBNS enrichment (R)”, `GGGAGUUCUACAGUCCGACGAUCGGGAGUGUGAGUGAGUGUGCAUGUGUCUGAAGUUCACCAUUGCCCCCACCUGCACCUAGCAAGGAACAGGUGUUUGAUGUAUUUUGCUCAUGACUGCAGUAUGCAUGUAUUGGAAUUCUCGGGUGCCAA` is recorded as 17.3.
`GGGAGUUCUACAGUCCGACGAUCCUCAGAAUAUUAAUUUGUAAAUUCUGCAAGUUUAAUUUUUAUGUAGAUGGUAUAACAUUUGAAAAUAUUGUCUUAUGUGAUUUUUUCCCCUGAAAAUAUUUGCUUGUAAAUGGAAUUCUCGGGUGCCAA`: “RBNS enrichment (R)” 0.846.
For `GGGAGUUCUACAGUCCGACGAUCCCCAUGAAAGAUUAUUAAUUACAUCUCACUGUAGGGUCUUUCUGGUAUUGAGGGGAGUCAGCAUGUAUUUGCAGCUUAUGUUCAUGGGCAUAUAUAAACAUGUGUAUGUGUGGAAUUCUCGGGUGCCAA`, “RBNS enrichment (R)” read 0.52.
Under “RBNS enrichment (R)”, `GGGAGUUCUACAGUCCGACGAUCAAAUGGUAAUCAAGUGUGAUGUUUCUAUAAAAAUAAUUGAGAUUCACAUGUAAUAGACCCUUUAGCUUUAAUGAGCAGACAUGAGAAUGGUUUAUGAUCUUAAGUUGGUAUGGAAUUCUCGGGUGCCAA` is recorded as 0.799.
`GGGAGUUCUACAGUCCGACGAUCCCUACUGCAUUCGUCAGCACCUGGAAACACCUGCCUUCUAAUGUAGAGCAUCCUAAAGAAAGCACGCAUGAGGUCAUUCUGAUGCACGGCGAGAUGAGAUGUCAUUUCUGUGGAAUUCUCGGGUGCCAA` — result for “RBNS enrichment (R)”: 12.9.
`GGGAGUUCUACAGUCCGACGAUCAAGUUUACCAGCUUCAAACUAUGUAAAGGACUUCACCAAGUUAGGGCCUCCUGGGUUUAUUGCAGAUUAAAGCCAUCUCAGUGAAGAUAUGCGUGCACGCACAGACAGACUGGAAUUCUCGGGUGCCAA`: “RBNS enrichment (R)” 1.12.
For `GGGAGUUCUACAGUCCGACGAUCGAAACUUUGCCUUAGGUAGGUGUUGGCCAGAAAAGUCCAGAUUUCUCUGUGACCUCACCCUGGCCUCUCCUGGAGCUCUGAACCUGCUGUGGAAGGAAGUGGCUGUGACUUGGAAUUCUCGGGUGCCAA`, “RBNS enrichment (R)” read 0.832.
Under “RBNS enrichment (R)”, `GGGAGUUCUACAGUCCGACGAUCCUUUAGAGGGUGCUGAGAUGGGGACUUGCAGGCUUGGAGCAAGAAAGGGUAGGAGUGCACAUAGGAUAAGACACAUUCCAAAAUCAGGGCCUCCCUGUUUUUUCCUACUCUGGAAUUCUCGGGUGCCAA` is recorded as 0.496.
For `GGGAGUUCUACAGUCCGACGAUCUAGUGUGGACUUUUGUGGGCACUGUCUGUCAUUGGCCACCCAGUCACGUACCGAGUGGGCAGUGUCACAGCCAAAGCUACCACUGAGCCACAGCGUAGGUCAUUGCUUGAUGGAAUUCUCGGGUGCCAA`, “RBNS enrichment (R)” read 0.251.
